Results gathered from unrelated publications.
Protocols differ between the studies behind these lines.
Target: Focal adhesion kinase 1 (PTK2, Homo sapiens, UniProt Q05397)
Sequence of UniProt Q05397 (whole entry, looked up): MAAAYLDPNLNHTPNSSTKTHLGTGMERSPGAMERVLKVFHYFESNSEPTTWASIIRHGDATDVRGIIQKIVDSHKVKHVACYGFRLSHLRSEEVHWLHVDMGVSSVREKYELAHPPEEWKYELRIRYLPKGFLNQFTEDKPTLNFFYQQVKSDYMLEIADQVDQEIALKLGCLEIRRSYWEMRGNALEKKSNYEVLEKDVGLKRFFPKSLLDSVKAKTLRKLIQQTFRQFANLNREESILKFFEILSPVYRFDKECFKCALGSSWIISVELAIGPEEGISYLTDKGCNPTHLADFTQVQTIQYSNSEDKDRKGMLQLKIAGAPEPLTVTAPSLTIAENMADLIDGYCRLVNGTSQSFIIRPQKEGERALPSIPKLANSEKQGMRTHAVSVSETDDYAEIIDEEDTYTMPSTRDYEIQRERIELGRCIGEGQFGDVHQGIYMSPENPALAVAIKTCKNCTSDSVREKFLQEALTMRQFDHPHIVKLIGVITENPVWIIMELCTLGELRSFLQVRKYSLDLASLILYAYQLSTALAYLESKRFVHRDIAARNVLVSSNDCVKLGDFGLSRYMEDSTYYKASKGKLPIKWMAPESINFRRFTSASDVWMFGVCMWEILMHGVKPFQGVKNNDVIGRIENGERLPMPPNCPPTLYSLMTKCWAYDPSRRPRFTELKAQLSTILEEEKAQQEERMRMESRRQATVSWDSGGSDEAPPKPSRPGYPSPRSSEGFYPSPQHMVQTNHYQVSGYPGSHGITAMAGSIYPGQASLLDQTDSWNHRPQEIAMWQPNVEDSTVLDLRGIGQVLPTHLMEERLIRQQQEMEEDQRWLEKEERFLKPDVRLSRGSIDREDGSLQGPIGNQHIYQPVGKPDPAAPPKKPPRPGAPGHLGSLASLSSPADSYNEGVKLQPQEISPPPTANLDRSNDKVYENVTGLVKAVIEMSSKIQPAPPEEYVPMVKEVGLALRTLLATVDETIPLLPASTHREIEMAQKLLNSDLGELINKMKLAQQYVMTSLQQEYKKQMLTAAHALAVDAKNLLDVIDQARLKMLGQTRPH

| SMILES | test | test system | conditions | scale | endpoint | result |
| --- | --- | --- | --- | --- | --- | --- |
| CS(C)(=O)=Nc1ccc(-c2ccc(-c3nc4cc(O[C@@H]5CO[C@H]6[C@@H]5OC[C@H]6O)[nH]c4cc3F)cc2)cc1 | enzyme activity, inhibitor |  | 10 µM |  | inhibition | 10% |
| CN(C)[C@H]1C[C@@]23CC[C@@]4(O2)C(=CC[C@]2(C)[C@@H](c5ccc6ccncc6c5)CC[C@H]24)C=C3[C@@H](O)[C@@H]1O | ATP probe labelling, inhibitor, KiNativ profiling |  | 1 µM |  | inhibition | 4.6% |
| O=C1NC(=O)c2c1c1cc(F)c[n+]3c1c1c2c2cc(O)ccc2[n]1[Ru-4]312([N]=C=S)[S+]3CC[S+]1CC[S+]2CC3 (centres unmarked) | enzyme activity |  | 100 nM, human enzyme, with: 10 µM ATP | reference: untreated | remaining activity | 100% |
| CC(C)[C@H]1NC(=O)C[C@H]2/C=C/CCSSC[C@@H](NC1=O)C(=O)N[C@H](Cc1cccc3ccccc13)C(=O)NCC(=O)O2 | enzyme activity, inhibitor |  | 10 µM |  | inhibition | 8% |
| C=CC(=O)Nc1cc(-c2nn(C3CCC(N4CCN(C(C)=O)CC4)CC3)c3ncnc(N)c23)ccc1Oc1ccccc1 (centres unmarked) | inhibitor, KiNativ profiling | biochemical | 2 µM |  | inhibition | 12.1% |
| C[C@H](NCc1ccc(-c2ccc(C(F)(F)F)cc2)cc1)C(N)=O | cell-free assay, competition with immobilised ligand |  | 1 µM |  | inhibition | 4% |
| CCOC(=O)[C@@H]1Cc2c(cc([N+](=O)[O-])cc2[N+](=O)[O-])[C@H](O)[C@]12C(=O)Nc1ccc(Br)cc12 | binding, competition with immobilised ligand |  | 0.1 µM |  | remaining binding | 63% |
| Nc1ccc(/C=C/C(=O)N2CCc3c(oc4c(-c5ccc(F)cc5)cc(-c5ccc(C(=O)N6CCC(F)(F)CC6)cn5)cc34)C2)cn1 | binding, competition with immobilised ligand |  | 1 µM |  | remaining binding | 100% |

Excerpt of the above:
| SMILES | test | test system | conditions | scale | endpoint | result |
| --- | --- | --- | --- | --- | --- | --- |
| CN(C)[C@H]1C[C@@]23CC[C@@]4(O2)C(=CC[C@]2(C)[C@@H](c5ccc6ccncc6c5)CC[C@H]24)C=C3[C@@H](O)[C@@H]1O | ATP probe labelling, inhibitor, KiNativ profiling |  | 1 µM |  | inhibition | 4.6% |
